Assay results gathered from unrelated publications.
Compare with care: the assays were run in different laboratories.
Method: steady-state kinetics
B1: enzyme (Candida albicans, UniProt A0A1D8PHX1); chain MISIIQNGISQLSSVSGLDEANLKILICTLLSFPFGIIFKRLPDHDYTLKNIYNVAVSCFYVFGICDLRFGISTLLISATGSYFITRYVRTKSMPWINFLFLMIHMAYSHFHLQFFKEYDPKSIDITGAQMILVMKLSAFGWNIHDGKQPRSTLNDFNKARAITKHPNVLPYIGYVFFYASLLTGPAFDYADYDKFIHGTLFDDVPQDKRPGKNKRRIPRSGVQAFKKFSLGFFWAFLLLQSDKFVTMEYMFSPEFVQYHGLFYRIIYMWILGFTFRLKYYTIWTIAEGACILCGIGYNGVDPETGEFKWNRVQNIDPWSFETGQNVHACLEAWNQNTNIWLKNYVYLRVAKPGKKPGFKSTIFTFTTSAFWHGTRPGYYLTFVVGALMQTVGKYYRRNFRPIFLEADGKTPKPTKIVYDFVCWVNTQLAFGFFVQPFVILGFTKSLECWATVYYWLLWVIAISFFAFSGPFAKSVSKFFKSLQPSYREQQRKSREDKYKLNNEEASIVEQAVGAKLGQDYDIPALGLPPFDVFTDFDQTEVDHDIQHLRKAWTSFRGRRGSITENDFDGLKDAYNNFTNEINDIFNTKKEEFKKEKLNKQN
B2: enzyme R201K (Arabidopsis thaliana, UniProt O82390); chain MNARALLCSSNIHSLYTSNRPPEKTSSSRSLRNLKPSPKSLRVWIYPRNRSSVFRVLVRSSDKSESSNSYYVEGDKVSGNNDVVSDSPSSIVLPWWEEFPKRWVIVLLCFSAFLLCNMDRVNMSIAILPMSAEYGWNPATVGLIQSSFFWGYLLTQIAGGIWADTVGGKRVLGFGVIWWSIATILTPVAAKLGLPYLLVVKAFMGVGEGVAMPAMNNILSKWVPVQERSRSLALVYSGMYLGSVTGLAFSPFLIHQFGWPSVFYSFGSLGTVWLTLWLTKAESSPLEDPTLLPEERKLIADNCASKEPVKSIPWRLILSKPPVWALISCHFCHNWGTFILLTWMPTYYHQVLKFNLMESGLLSVFPWMTMAISANAGGWIADTLVSRGFSVTNVRKIMQTIGFLGPAFFLTQLKHIDSPTMAVLCMACSQGTDAFSQSGLYSNHQDIAPRYSGVLLGLSNTAGVLAGVLGTAATGHILQHGSWDDVFTISVGLYLVGTVIWNLFSTGEKIID
B3: CMBL (Homo sapiens, UniProt Q96DG6); chain MANEAYPCPCDIGHRLEYGGLGREVQVEHIKAYVTKSPVDAGKAVIVIQDIFGWQLPNTRYIADMISGNGYTTIVPDFFVGQEPWDPSGDWSIFPEWLKTRNAQKIDREISAILKYLKQQCHAQKIGIVGFCWGGTAVHHLMMKYSEFRAGVSVYGIVKDSEDIYNLKNPTLFIFAENDVVIPLKDVSLLTQKLKEHCKVEYQIKTFSGQTHGFVHRKREDCSPADKPYIDEARRNLIEWLNKYM
B4: UGT3A2 Y474C (Homo sapiens, UniProt Q3SY77); chain AKILTISTVGGSHYLLMDRVSQILQDHGHNVTMLNHKRGPFMPDFKKEEKSYQVISWLAPEDHQREFKKSFDFFLEETLGGRGKFENLLNVLEYLALQCSHFLNRKDIMDSLKNENFDMVIVETFDYCPFLIAEKLGKPFVAILSTSFGSLEFGLPIPLSYVPVFRSLLTDHMDFWGRVKNFLMFFSFCRRQQHMQSTFDNTIKEHFTEGSRPVLSHLLLKAELWFINSDFAFDFARPLLPNTVYVGGLMEKPIKPVPQDLENFIAKFGDSGFVLVTLGSMVNTCQNPEIFKEMNNAFAHLPQGVIWKCQCSHWPKDVHLAANVKIVDWLPQSDLLAHPSIRLFVTHGGQNSIMEAIQHGVPMVGIPLFGDQPENMVRVEAKKFGVSIQLKKLKAETLALKMKQIMEDKRYKSAAVAASVILRSHPLSPTQRLVGWIDHVLQTGGATHLKPCVFQQPWHEQYLLDVFVFLLGLTLGTLWLCGKLLGMAVWWLRGARKVKET
B5: FMO3 E158K/E308G (Homo sapiens, UniProt P31513); chain GKKVAIIGAGVSGLASIRSCLEEGLEPTCFEKSNDIGGLWKFSDHAEEGRASIYKSVFSNSSKEMMCFPDFPFPDDFPNFMHNSKIQEYIIAFAKEKNLLKYIQFKTFVSSVNKHPDFATTGQWDVTTERDGKKESAVFDAVMVCSGHHVYPNLPKKSFPGLNHFKGKCFHSRDYKEPGVFNGKRVLVVGLGNSGCDIATELSRTAEQVMISSRSGSWVMSRVWDNGYPWDMLLVTRFGTFLKNNLPTAISDWLYVKQMNARFKHENYGLMPLNGVLRKEPVFNDELPASILCGIVSVKPNVKEFTGTSAIFEDGTIFEGIDCVIFATGYSFAYPFLDESIIKSRNNEIILFKGVFPPLLEKSTIAVIGFVQSLGAAIPTVDLQSRWAAQVIKGTCTLPSMEDMMNDINEKMEKKRKWFGKSETIQTDYIVYMDELSSFIGAKPNIPWLFLTDPKLAMEVYFGPCSPYQFRLVGPGQWPGARNAILTQWDRSLKPMQTRVVGRLQKPCFFFHWLKLFAIPILLIAVFLVLT
B6: COMT (Canis lupus familiaris, UniProt Q60F99); chain MGDTKEQRILRHVLQHAVAGDPQSVLEAIDTYCSQKEWAMNVGDKKGQILDAVVREQRPSVLLELGAYCGYSAVRMARLLEPGARLITIELNPDFAAITQQMLDFAGLQDRVTILTGASQDTIPELKKKHDVDTLDMVFLDHWKDRYLPDTLLLEECGLLQKGTVLLADNVICPGTPEFLAYVRGNNRFECTHFPSYLEYSKRVDGLEKVVYKGPGSPTQP
B7: FMO1 I303V (Homo sapiens, UniProt Q01740); chain AKRVAIVGAGVSGLASIKCCLEEGLEPTCFERSDDLGGLWRFTEHVEEGRASLYKSVVSNSCKEMSCYSDFPFPEDYPNYVPNSQFLEYLKMYANHFDLLKHIQFKTKVCSVTKCSDSAVSGQWEVVTMHEEKQESAIFDAVMVCTGFLTNPYLPLDSFPGINAFKGQYFHSRQYKHPDIFKDKRVLVIGMGNSGTDIAVEASHLAEKVFLSTTGGGWVISRIFDSGYPWDMVFMTRFQNMLRNSLPTPIVTWLMERKINNWLNHANYGLIPEDRTQLKEFVLNDELPGRIITGKVFIRPSVKEVKENSVIFNNTSKEEPIDIIVFATGYTFAFPFLDESVVKVEDGQASLYKYIFPAHLQKPTLAIIGLIKPLGSMIPTGETQARWAVRVLKGVNKLPPPSVMIEEINARKENKPSWFGLCYCKALQSDYITYIDELLTYINAKPNLFSMLLTDPHLALTVFFGPCSPYQFRLTGPGKWEGARNAIMTQWDRTFKVIKARVVQESPSPFESFLKVFSFLALLVAIFLIFL
Chain of UniProt H6U1I8 (whole entry, looked up): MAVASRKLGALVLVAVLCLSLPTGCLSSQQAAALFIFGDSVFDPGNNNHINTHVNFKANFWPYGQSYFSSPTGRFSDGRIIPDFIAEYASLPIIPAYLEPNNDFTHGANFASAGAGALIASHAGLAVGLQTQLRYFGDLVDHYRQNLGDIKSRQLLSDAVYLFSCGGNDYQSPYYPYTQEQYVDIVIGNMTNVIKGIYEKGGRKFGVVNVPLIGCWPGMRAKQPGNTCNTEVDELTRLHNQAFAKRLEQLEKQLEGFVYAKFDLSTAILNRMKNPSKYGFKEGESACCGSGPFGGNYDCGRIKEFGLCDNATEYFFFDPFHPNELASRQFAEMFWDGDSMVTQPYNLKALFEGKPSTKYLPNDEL
Chain of UniProt P22309 (whole entry, looked up): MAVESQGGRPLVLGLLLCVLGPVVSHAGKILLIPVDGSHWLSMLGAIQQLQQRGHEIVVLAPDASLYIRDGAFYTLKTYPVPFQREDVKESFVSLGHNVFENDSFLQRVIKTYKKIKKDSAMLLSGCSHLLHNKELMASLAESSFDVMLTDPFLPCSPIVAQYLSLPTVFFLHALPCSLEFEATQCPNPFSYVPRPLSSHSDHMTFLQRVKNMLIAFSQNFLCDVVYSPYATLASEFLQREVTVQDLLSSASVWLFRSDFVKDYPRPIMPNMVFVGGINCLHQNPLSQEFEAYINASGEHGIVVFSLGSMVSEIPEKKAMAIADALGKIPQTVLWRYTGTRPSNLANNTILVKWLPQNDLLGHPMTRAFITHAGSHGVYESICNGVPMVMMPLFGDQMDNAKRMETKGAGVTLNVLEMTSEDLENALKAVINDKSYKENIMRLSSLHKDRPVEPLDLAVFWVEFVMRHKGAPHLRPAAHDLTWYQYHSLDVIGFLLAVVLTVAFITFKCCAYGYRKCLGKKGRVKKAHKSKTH
Chain of UniProt O60656 (whole entry, looked up): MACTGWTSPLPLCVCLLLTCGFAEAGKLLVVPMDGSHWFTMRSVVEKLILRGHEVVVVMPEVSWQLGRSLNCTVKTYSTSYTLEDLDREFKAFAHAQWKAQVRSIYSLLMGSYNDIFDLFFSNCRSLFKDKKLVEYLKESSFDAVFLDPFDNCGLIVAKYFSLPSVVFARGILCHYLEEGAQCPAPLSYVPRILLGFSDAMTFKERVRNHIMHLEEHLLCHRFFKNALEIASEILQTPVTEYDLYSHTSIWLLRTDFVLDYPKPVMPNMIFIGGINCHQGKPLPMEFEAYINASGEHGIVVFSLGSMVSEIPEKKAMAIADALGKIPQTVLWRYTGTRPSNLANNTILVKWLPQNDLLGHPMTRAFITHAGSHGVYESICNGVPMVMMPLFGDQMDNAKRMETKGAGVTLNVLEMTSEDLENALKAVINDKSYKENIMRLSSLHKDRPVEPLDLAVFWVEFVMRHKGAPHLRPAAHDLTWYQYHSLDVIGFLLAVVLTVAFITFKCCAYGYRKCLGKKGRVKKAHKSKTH

| Substance | substrate | matrix | pH | temperature | setting | with | Vmax/Km |
| --- | --- | --- | --- | --- | --- | --- | --- |
| FMO3 (Homo sapiens, UniProt P31513) | CN1CCC[C@H]1c1cccnc1 | HEK293 microsomes | – | 37 °C | not purified | NADPH regenerating system | 0.0161 µL/min/mg |
| B1 (enzyme) | CCCCCCCCCCCCCCCCCC(=O)SCCNC(=O)CCNC(=O)[C@H](O)C(C)(C)COP(=O)(O)OP(=O)(O)OC[C@H]1O[C@@H](n2cnc3c(N)ncnc32)[C@H](O)[C@@H]1OP(=O)(O)O | – | pH 7.4 | 37 °C | apparent, not purified | – | 140 µL/min/mg |
| UGT1A1 (Homo sapiens, UniProt P22309) | COc1cc2c(cc1CC=C(C)C)C(=O)C[C@@H](c1ccc(O)cc1)O2 | – | pH 7.4 | 37 °C | – | – | 191 µL/min/mg |
| B2 (enzyme R201K) | O=P(O)(O)O | – | pH 6.5 | 25 °C | apparent, not purified | – | 8.33 µL/min/mg |
| B3 (CMBL) | Cc1oc(=O)oc1COC(=O)C1=C([C@H]2CCCO2)S[C@@H]2[C@@H]([C@@H](C)O)C(=O)N12 | lysate | pH 7.4 | 37 °C | not purified | – | 58 µL/min/mg |
| B4 (UGT3A2 Y474C) | O=c1ccn([C@@H]2O[C@H](CO[P@@](=O)(O)O[P@@](=O)(O)O[C@H]3O[C@H](CO)[C@@H](O)[C@H](O)[C@H]3O)[C@@H](O)[C@H]2O)c(=O)[nH]1 | – | pH 7.4 | 37 °C | not purified | 1-OH-pyrene 16 µM, MgCl2 10 mM, alamethicin | 0.032 µL/min/mg |
| enzyme (Tanacetum cinerariifolium, UniProt H6U1I8) | CC/C=C\CC1=C(C)[C@@H](O)CC1=O | – | pH 7.5 | 25 °C | – | – | 122 µL/min/mg |
| B5 (FMO3 E158K/E308G) | CN1CCC[C@H]1c1cccnc1 | HEK293 microsomes | – | 37 °C | not purified | NADPH regenerating system | 0.0149 µL/min/mg |
| UGT1A9 (Homo sapiens, UniProt O60656) | O=c1cc(-c2ccc(O)cc2)oc2ccccc12 | – | pH 7.4 | 37 °C | – | – | 67.6 µL/min/mg |
| B6 (COMT) | O=c1oc2c(O)c(O)ccc2cc1-c1nc2ccccc2s1 | dog liver S9 | pH 7.4 | 37 °C | – | – | 627 µL/min/mg |
| B7 (FMO1 I303V) | CN1CCC[C@H]1c1cccnc1 | HEK293 microsomes | – | 37 °C | not purified | NADPH regenerating system | 0.0045 µL/min/mg |

A few entries again:
| Substance | substrate | matrix | pH | temperature | setting | with | Vmax/Km |
| --- | --- | --- | --- | --- | --- | --- | --- |
| B3 (CMBL) | Cc1oc(=O)oc1COC(=O)C1=C([C@H]2CCCO2)S[C@@H]2[C@@H]([C@@H](C)O)C(=O)N12 | lysate | pH 7.4 | 37 °C | not purified | – | 58 µL/min/mg |
